Measurements gathered from unrelated publications.
Protocols differ between the studies behind these lines. ± marks the error that the study gave.

| Substance | assay | system | conditions | how to read | measurement | value |
| --- | --- | --- | --- | --- | --- | --- |
| YLQPRTFLL | AIM | peptide, CD8+ T cells from PBMC, human donors | HLA-A*02:01 restricted, unit not given | baseline: positive over tested donors | frequency of responding donors | 17 |
| LPYGK | DSC | peptide, 7/3 SOPC/cholesterol bilayers | 10 mol%, pH 7.40, SOPC chain melting transition | – | transition enthalpy | 1.5 kcal/mol |
| C/C=C1\NC(=O)C(C(C)O)NC(=O)C(CCCN)NC(=O)C(CCO)NC(=O)CNC(=O)C(CCN)NC(=O)C(NC(=O)CC(O)CCCCCCCCCCC)COC(=O)C(C(O)CCl)NC(=O)C(C(O)C(=O)O)NC1=O (stereo not drawn) | calcein leakage | DOPC/CHOL liposomes | concentration not given, added: 20 wt% PEG-8000 | – | maximum fusion | 71 ± 7% |
| COc1ccc(C2=N[C@@](C)(C(=O)O)CS2)c(O)c1 | – | bile duct-cannulated rats, bile and urine | subcutaneous, 300 µmol/kg, 24 h, added: uranium 1 mg/kg s.c. | – | uranium excretion | 339 ± 140 µg/kg |
| RNRFLYIIK | AIM | peptide, CD8+ T cells from PBMC, human donors | HLA-A*30:01 restricted, unit not given | baseline: positive over tested donors | frequency of responding donors | 50 |
| CS/C(S)=N/CCCC[S+](C)[O-] (racemic) | RT-PCR | rat, mammary gland | oral gavage, 200 mg/kg, four days | baseline: vehicle | mRNA level | 0.059 fold change |
| YECDIPIGAGI | AIM | peptide, CD8+ T cells from PBMC, human donors | – | baseline: positive over tested donors | frequency of responding donors | 20% |
| CC[C@H](C)[C@H](NC(=O)[C@H](Cc1ccc(O)cc1)NC(=O)[C@H](Cc1c[nH]c2ccccc12)NC(=O)[C@H](CC(C)C)NC(C)=O)C(=O)N[C@@H](CCCCN)C(N)=O | DSC | SOPC/cholesterol 6/4 bilayers | 10 mol%, pH 7.40 | – | transition enthalpy | 0.3 kcal/mol |
| COc1ccc(C2=N[C@@H](C(=O)O)CS2)c(O)c1 | – | rat, bile duct-cannulated, bile and urine | subcutaneous, 300 µmol/kg single dose, 24 h, added: uranium 1 mg/kg s.c. | – | uranium excretion | 327 ± 38 µg/kg |
| insulin human | measured: RYR2 mRNA | EcoHIV-infected mouse, brain | i.p., dose not given | baseline: PBS | fold change | 1.21 |
| YTNSFTRGVY | AIM | peptide, CD8+ T cells from PBMC, human donors | HLA-A*01:01 restricted, unit not given | baseline: positive over tested donors | frequency of responding donors | 33 |
| LPYAK | DSC | peptide, 7/3 SOPC/cholesterol bilayers | 15 mol%, pH 7.40, SOPC chain melting transition | – | transition enthalpy | 1.1 kcal/mol |
